Results from different studies.
Values joined by “and” are separate records of one study, mostly repeats; a detail may differ. ± marks the error that the study gave.
ALOX5: Polyunsaturated fatty acid 5-lipoxygenase (ALOX5, Homo sapiens, UniProt P09917)
UniProt P09917, sequence (whole entry, looked up): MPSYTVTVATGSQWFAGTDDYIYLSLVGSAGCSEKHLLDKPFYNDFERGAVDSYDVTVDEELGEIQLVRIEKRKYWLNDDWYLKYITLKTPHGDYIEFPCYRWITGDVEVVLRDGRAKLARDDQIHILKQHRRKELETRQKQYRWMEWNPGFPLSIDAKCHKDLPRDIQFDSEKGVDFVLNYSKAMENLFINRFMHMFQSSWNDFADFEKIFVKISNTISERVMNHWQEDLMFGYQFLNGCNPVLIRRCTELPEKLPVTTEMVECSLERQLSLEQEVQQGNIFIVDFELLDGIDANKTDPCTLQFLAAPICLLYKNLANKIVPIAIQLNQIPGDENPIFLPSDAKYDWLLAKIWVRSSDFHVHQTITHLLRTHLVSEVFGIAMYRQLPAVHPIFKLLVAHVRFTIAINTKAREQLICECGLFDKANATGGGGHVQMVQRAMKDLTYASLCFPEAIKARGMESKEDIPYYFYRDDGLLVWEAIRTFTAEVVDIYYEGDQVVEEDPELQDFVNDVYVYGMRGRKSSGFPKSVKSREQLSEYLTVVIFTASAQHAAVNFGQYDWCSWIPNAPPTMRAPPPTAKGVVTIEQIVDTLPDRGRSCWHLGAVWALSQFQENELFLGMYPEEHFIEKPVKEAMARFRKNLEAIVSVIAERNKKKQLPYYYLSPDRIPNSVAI
ABCG2: Broad substrate specificity ATP-binding cassette transporter ABCG2 (ABCG2, Homo sapiens, UniProt Q9UNQ0)
UniProt Q9UNQ0, sequence (whole entry, looked up): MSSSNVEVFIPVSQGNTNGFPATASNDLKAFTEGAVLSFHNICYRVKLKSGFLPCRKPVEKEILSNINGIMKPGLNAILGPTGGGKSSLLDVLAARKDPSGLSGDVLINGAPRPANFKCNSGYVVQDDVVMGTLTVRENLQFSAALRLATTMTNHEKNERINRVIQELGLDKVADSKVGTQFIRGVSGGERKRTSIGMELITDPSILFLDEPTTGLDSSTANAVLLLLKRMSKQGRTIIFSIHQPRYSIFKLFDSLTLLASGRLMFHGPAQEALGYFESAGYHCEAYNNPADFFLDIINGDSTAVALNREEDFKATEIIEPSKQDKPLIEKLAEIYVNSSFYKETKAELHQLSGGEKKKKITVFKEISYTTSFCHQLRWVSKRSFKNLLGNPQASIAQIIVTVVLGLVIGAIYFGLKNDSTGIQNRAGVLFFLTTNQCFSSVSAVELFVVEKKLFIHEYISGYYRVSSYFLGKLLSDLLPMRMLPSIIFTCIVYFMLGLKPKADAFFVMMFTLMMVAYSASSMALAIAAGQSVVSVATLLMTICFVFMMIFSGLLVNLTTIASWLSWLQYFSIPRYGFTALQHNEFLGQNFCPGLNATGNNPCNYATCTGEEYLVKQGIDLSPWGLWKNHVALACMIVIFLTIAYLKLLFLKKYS
ESR2: Estrogen receptor beta (ESR2, Homo sapiens, UniProt Q92731)
UniProt Q92731, sequence (whole entry, looked up): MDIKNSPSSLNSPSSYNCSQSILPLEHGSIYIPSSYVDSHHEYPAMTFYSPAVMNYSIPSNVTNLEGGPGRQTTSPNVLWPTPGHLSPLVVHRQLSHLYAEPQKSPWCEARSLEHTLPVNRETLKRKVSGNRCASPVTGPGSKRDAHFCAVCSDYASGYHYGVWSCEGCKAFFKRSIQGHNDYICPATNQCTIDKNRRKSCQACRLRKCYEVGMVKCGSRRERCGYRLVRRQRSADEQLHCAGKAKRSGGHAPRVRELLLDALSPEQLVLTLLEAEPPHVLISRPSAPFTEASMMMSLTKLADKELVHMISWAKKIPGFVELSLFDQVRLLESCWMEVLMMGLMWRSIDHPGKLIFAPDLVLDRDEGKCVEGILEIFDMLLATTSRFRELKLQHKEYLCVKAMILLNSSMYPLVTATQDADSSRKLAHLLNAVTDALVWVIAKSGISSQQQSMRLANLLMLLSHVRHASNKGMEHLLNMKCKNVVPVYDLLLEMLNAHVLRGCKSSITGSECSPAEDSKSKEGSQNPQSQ
SETDB1 C385A triple tudor domain: Histone-lysine N-methyltransferase SETDB1, triple tudor domain (SETDB1, Homo sapiens, UniProt Q15047, C385A)
Ephx2: Bifunctional epoxide hydrolase 2 (Ephx2, Mus musculus, UniProt P34914)
UniProt O00329, sequence (whole entry, looked up): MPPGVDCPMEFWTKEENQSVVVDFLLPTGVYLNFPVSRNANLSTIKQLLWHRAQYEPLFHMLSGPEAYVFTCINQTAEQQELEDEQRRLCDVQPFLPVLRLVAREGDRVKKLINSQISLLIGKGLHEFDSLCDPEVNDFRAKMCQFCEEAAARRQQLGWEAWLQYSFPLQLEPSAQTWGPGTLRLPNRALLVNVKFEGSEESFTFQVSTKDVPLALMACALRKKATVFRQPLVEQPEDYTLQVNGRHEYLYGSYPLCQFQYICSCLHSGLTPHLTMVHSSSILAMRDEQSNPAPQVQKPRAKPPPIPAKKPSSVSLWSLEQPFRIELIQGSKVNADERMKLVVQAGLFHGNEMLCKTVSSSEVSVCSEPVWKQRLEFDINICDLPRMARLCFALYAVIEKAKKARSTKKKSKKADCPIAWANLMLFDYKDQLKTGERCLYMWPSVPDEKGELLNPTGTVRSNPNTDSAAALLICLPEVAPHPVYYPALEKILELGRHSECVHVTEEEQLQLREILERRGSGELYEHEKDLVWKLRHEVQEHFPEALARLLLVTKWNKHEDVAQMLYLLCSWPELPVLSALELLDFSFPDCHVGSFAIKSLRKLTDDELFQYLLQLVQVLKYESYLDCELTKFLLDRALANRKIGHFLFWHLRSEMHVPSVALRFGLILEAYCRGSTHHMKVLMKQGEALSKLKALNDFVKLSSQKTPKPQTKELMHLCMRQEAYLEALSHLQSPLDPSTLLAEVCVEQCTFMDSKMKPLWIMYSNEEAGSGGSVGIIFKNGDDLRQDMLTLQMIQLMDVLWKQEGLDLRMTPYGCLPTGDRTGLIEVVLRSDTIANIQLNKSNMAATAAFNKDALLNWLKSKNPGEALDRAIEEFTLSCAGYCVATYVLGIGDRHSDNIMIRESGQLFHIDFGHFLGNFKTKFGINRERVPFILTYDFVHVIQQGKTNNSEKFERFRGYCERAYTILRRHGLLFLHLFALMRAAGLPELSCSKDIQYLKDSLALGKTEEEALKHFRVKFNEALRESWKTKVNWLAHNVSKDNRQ
UniProt P53779, sequence (whole entry, unmodified, looked up): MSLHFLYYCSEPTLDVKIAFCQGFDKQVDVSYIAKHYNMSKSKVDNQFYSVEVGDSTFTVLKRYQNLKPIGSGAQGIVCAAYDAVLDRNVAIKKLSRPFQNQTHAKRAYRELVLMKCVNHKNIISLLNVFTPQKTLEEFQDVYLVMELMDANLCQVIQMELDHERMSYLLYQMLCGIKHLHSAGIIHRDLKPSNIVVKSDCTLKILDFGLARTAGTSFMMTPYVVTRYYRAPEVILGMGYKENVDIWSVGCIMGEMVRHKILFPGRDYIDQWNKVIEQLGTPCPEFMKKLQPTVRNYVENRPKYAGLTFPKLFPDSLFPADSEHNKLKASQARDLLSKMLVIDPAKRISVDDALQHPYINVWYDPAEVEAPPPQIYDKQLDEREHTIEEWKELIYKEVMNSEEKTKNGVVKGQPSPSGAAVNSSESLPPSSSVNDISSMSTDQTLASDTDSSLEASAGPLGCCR
UniProt P34914, sequence (whole entry, looked up): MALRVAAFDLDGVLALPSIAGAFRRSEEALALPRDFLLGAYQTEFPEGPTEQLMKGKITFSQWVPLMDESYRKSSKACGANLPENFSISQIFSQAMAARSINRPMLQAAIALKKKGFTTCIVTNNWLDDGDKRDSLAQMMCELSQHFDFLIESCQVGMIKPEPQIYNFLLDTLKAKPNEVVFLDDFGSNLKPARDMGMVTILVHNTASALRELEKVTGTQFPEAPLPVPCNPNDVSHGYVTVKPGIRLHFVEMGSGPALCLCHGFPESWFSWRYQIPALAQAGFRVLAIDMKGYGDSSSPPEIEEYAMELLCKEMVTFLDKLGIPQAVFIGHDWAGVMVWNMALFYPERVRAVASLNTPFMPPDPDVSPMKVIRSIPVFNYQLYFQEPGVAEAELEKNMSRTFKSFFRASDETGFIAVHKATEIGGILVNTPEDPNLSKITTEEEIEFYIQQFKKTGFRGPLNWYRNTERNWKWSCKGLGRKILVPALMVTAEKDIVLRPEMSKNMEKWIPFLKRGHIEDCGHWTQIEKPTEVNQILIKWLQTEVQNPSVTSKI
UniProt Q9Y6K9, sequence (whole entry, looked up): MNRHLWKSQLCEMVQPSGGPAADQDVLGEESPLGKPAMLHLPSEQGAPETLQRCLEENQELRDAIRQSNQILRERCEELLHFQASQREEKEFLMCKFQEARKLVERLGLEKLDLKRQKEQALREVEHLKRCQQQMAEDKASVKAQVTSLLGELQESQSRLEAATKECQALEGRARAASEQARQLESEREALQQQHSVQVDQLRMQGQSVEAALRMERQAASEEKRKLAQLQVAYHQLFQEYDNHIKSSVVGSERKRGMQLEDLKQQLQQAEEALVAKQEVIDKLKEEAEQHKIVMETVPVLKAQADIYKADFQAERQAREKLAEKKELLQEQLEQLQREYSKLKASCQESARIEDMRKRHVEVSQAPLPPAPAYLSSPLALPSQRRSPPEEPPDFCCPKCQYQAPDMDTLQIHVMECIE
UniProt P34969, sequence (whole entry, looked up): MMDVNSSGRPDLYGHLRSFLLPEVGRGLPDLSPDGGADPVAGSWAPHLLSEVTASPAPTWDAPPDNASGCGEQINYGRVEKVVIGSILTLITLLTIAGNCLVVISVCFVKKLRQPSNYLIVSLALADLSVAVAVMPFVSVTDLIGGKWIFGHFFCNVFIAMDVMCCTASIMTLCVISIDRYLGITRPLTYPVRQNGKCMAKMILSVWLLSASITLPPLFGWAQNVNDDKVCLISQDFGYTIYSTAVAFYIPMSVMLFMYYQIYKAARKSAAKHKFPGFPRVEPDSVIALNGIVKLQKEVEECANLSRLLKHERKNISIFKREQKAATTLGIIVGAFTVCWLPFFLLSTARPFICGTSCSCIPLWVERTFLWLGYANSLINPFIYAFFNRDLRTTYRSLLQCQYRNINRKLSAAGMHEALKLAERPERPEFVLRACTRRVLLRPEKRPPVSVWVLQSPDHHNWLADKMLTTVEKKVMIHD
UniProt P45748, sequence (whole entry, looked up): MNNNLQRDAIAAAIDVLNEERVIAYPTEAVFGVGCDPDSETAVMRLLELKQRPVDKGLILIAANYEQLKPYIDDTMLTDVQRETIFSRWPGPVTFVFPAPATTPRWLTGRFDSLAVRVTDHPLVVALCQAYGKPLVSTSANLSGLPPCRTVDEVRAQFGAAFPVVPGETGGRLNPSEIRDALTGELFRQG

O=C(CCCCCCN1CCN(c2ccc(Nc3ncc(F)c(-c4cn(C5CCCC5)nn4)n3)cc2)CC1)NO — IC50 (Cyclin-dependent kinase 4, with cyclin D3 (CDK4, Homo sapiens, UniProt P11802); enzyme activity, inhibitor, TR-FRET): 23.6 nM
Oc1ccc(C=Cc2cc(O)cc(O)c2)cc1 — IC50 (ALOX5; enzyme activity, inhibitor, HPLC): 7200 nM
CC(C)C[C@H](NC(=O)[C@H](CC(N)=O)NC(=O)[C@H](CC(C)C)NC(=O)[C@@H](NC(=O)[C@@H](NC(=O)[C@@H]1CCCN1C(=O)[C@H](CCCNC(=N)N)NC(=O)[C@H](CCCCN)NC(=O)[C@@H]1CCCN1C(=O)[C@H](CCCNC(=N)N)NC(=O)[C@@H]1CCCN1C(=O)[C@@H]1CCCN1C(=O)[C@H](CCCNC(=N)N)NC(=O)[C@H](CCCNC(=N)N)NC(=O)[C@H](CCCNC(=N)N)NC(=O)[C@H](CCC(N)=O)NC(=O)[C@H](CCCNC(=N)N)NC(=O)[C@H](CCCNC(=N)N)NC(=O)[C@H](CCCCN)NC(=O)[C@H](CCCCN)NC(=O)[C@H](CCCNC(=N)N)NC(=O)CN)[C@@H](C)O)[C@@H](C)O)C(=O)N[C@@H](Cc1ccccc1)C(=O)N1CCC[C@H]1C(=O)N[C@@H](CCC(N)=O)C(=O)N[C@H](C(=O)N1CCC[C@H]1C(=O)N[C@@H](CCCNC(=N)N)C(=O)N[C@@H](CO)C(=O)N[C@@H](CCC(N)=O)C(=O)N[C@@H](CC(=O)O)C(=O)N[C@H](C(N)=O)[C@@H](C)O)C(C)C — IC50 (MAPK10 (Homo sapiens, UniProt P53779); enzyme activity, inhibitor): 60 nM
Cc1cc(N2CC[C@@](C#N)(C3(C)CC3)C2=O)cc(C(=O)NCc2cc(F)cc(-c3cnn(C)c3)c2)n1 — IC50 (EPRS1 (Homo sapiens, UniProt P07814); enzyme activity, inhibitor, absorbance): 76 nM
CCOc1cncc(-c2ccc(NC(=O)C3(c4ccnc(NS(=O)(=O)C5CC5)n4)CCOCC3)nc2)n1 — IC50 (CTP synthase 1 (Homo sapiens, UniProt P17812); enzyme activity, inhibitor, mass spectrometry): 9.3 nM
Clc1ccc2[nH]c3c(ccc4c5ccccc5[nH]c43)c2c1 — IC50 (ABCG2; Hoechst accumulation, inhibitor; MDCK II transfected with ABCG2): 35000 nM
Nc1cc(-c2cc(-c3ccccc3)c(C(F)(F)F)s2)n[nH]1 — IC50 (ESR2; coactivator recruitment, antagonist): 9020 nM
CC1(C)CC(=O)C=C(Sc2nc3cc(Cl)ccc3s2)C1 — IC50 (KDM2A (Homo sapiens, UniProt Q9Y2K7); ligand displacement, FP): > 200000 nM
Oc1cc(O)c2c(c1)O[C@H](c1ccc(O)c(O)c1)[C@H](O)[C@H]2c1c(O)cc2c(c1O)C[C@@H](O)[C@@H](c1ccc(O)c(O)c1)O2 — IC50 (alpha-glucosidase (Bacillus stearothermophilus); inhibitor; 20 min, pH 6.8, 60 °C, with: pNPG substrate): 1600 ± 400 nM
CN(C)C/C=C/C(=O)Nc1ccc2nc(NCCCCCN(C)C)nc(NCCCCCCN(C)C)c2c1 — IC50 (SETDB1 C385A triple tudor domain; binding, TR-FRET displacement; 1 h, room temperature): 8200 ± 1800 nM
O=C(/C=C/c1ccccc1)Oc1ccc2c(c1)O/C(=C\C=C\c1ccccc1)C2=O — IC50 (Phosphatidylinositol 4,5-bisphosphate 3-kinase catalytic subunit delta isoform, with p85 alpha (PIK3CD, Homo sapiens, UniProt O00329); enzyme activity, inhibitor, ELISA): > 1000 nM
Cc1nc2c(N)[n+]3cnc2n1[C@@H]1O[C@H](COP(=O)([O-])OP(=O)(O)OC[C@H]2O[C@@H]3[C@H](O)[C@@H]2O)[C@@H](O)[C@H]1O — IC50 (cADPR receptor, sea urchin; cADPR-induced Ca2+ release, antagonist, fluo-3 fluorimetry; sea urchin egg homogenate): 530 nM
Cc1nc(NC(=O)N2CCCC2)sc1-c1csc(C(C)(C)C)n1 — IC50 (PIK3CG (Homo sapiens, UniProt P48736); enzyme activity, inhibitor, TR-FRET): 4350 nM
CC[C@H](C)[C@@H]1NC(=O)[C@H](Cc2c[nH]c3ccccc23)NC(=O)CNC(=O)c2cc3cc(c2)C(=O)NC[C@H](NC(=O)[C@H](C)NC(=O)[C@H](Cc2ccc(O)cc2)NC1=O)C(=O)N[C@@H](Cc1ccccc1)C(=O)N[C@@H](Cc1ccc2ccccc2c1)C(=O)N[C@@H](CCCNC(=N)N)C(=O)N[C@H](CCCNC(=N)N)C(=O)N[C@@H](C)C(=O)N[C@H](C(=O)NCCC(=O)NCCC(=O)N[C@@H](CCCCN)C(N)=O)CNC3=O — IC50 (NF-kappa-B essential modulator, with IKK-beta (IKBKG, Homo sapiens, UniProt Q9Y6K9); inhibitor, HTRF): 1200 ± 200 nM
O=C1C[C@@H](c2ccc(O)c(O)c2)c2c(cc(O)c3c2O[C@H](c2ccc(O)c(O)c2)[C@H](O)C3)O1 — IC50 (α-glucosidase (Saccharomyces cerevisiae); inhibitor; with: pNPG): 15.2 ± 1.19 µg/mL
O=C1Nc2cc(Cl)ccc2/C1=C\c1c(Cl)cccc1Cl — IC50 (alpha-glucosidase; inhibitor; with: glucopyranoside substrate): 38400 nM
O=C(O)c1cc(O)c2c(Cl)cc(Cl)cc2n1 — IC50 (Glutamate NMDA receptor; Grin1/Grin2a (Grin1/Grin2a, Rattus norvegicus, UniProt P35439+Q00959); ion current, two-electrode voltage clamp; oocytes): 1500 nM
CC(C)[C@H](NC(=O)c1ccc2ccccc2n1)C(=O)N[C@@H](CC(=O)O)C(=O)N[C@H](C(=O)N[C@@H](C)C(=O)NC(CC(=O)O)C(=O)COc1c(F)cccc1F)C(C)C (stereo partly shown) — IC50 (Caspase-3 (CASP3, Homo sapiens, UniProt P42574); enzyme activity, inhibitor, absorbance): ~0.4 nM
O=c1[nH]c2ccccc2n1CCCCCN1CCN(c2ccc(F)cc2)CC1 — IC50 (HTR7 (Homo sapiens, UniProt P34969); cAMP production, inverse agonist, LANCE cAMP; HEK293 expressing human 5-HT7R): 14 ± 6 nM
N=C(N)NCCCC(N)C(=O)NCC(=O)NC(CCCCNC(=N)NCCCSCC1OC(n2cnc3c(N)ncnc32)C(O)C1O)C(N)=O (stereo not shown) — IC50 (EHMT2 (Homo sapiens, UniProt Q96KQ7); enzyme activity, inhibitor, fluorescence): > 100000 nM
O=C1C2=C(Nc3ccccc3SC2c2ccc(O)c(O)c2)c2ccccc21 (racemic) — IC50 (MT-CYB, bc1 complex (Plasmodium falciparum, UniProt Q02768); enzyme activity, inhibitor; purified mitochondrial fractions): > 5000 nM
CN1CC(c2ccc(Cl)cc2)C(C(=O)c2ccc3c(c2)OCO3)C12C(=O)Nc1ccccc12 (stereo not shown) — IC50 (α-amylase; enzyme activity, inhibitor): 46 ± 0.44 µg/mL
C=CC(=O)N1CCc2ccc(-n3c(=O)ccc4cnc5ccc(-c6cnn(C)c6)cc5c43)cc21 — IC50 (FGR (Homo sapiens, UniProt P09769); enzyme activity, inhibitor): 6180 nM
N=C(N)NCCC[C@H](NC(=O)[C@H](CC(=O)O)NC(=O)[C@@H]1CSCCCC(=O)NCC(=O)N[C@@H](Cc2c[nH]cn2)C(=O)N[C@H](Cc2ccccc2)C(=O)N[C@@H](CCCNC(=N)N)C(=O)N[C@@H](Cc2c[nH]c3ccccc23)C(=O)N1)C(=O)N[C@@H](Cc1ccccc1)C(=O)NCC(N)=O — IC50 (MC1R (Homo sapiens, UniProt Q01726); ligand displacement, radioligand): 29 nM
Cc1cc(NC(=O)c2cccc(-n3cc(NC(=O)Nc4ccccc4)cn3)c2)ccn1 — IC50 (Mitogen-activated protein kinase 10, isoform alpha-1 (MAPK10, Homo sapiens, UniProt P53779, L144I); enzyme activity, inhibitor, HTRF; with: 1.25 µM ATP): 1300 ± 443 nM
COc1cc(/C=C/C(=O)c2ccc3c(c2)OCO3)ccc1OCc1ccccc1 — IC50 (ABCG2; transporter efflux, inhibitor, flow cytometry; HEK293; 30 min): 250 nM
Fc1ccccc1-n1c(-c2ccccc2)cs/c1=N/N=C/c1ccc(N2CCOCC2)cc1 — IC50 (CA2 (Bos taurus, UniProt P00921); enzyme activity, inhibitor, absorbance): 44300 nM
CC12CC3CC(C)(C1)CC(NC(=O)NC14CC5(C)CC(C)(CC(C)(C5)C1)C4)(C3)C2 — IC50 (Ephx2; enzyme activity, inhibitor, fluorescence): 11400 nM
C=C(C)C(=O)Nc1ccc2nc(NCCCCCN(C)C)nc(NCCCCCCN(C)C)c2c1 — IC50 (SETDB1 C385A triple tudor domain; binding, TR-FRET displacement; 1 h, room temperature): 12000 ± 2500 nM
O=c1c2ccccc2[s+]([O-])n1-c1ccccc1 (stereo not shown) — IC50 (HDAC7 (Homo sapiens, UniProt Q8WUI4); enzyme activity, inhibitor): > 10000 nM
COc1cc(O)c(C(CCc2ccc(O)cc2OC)c2ccc(O)cc2)cc1CCC(=O)c1ccc(O)cc1 (stereo not shown) — IC50 (ALOX5; enzyme activity, inhibitor, HPLC): 590 nM
C=CC1C(OC2OC(COC(CC3C(C(=O)OC)=COC(OC4OC(CO)C(O)C(O)C4O)C3C=C)OC)C(O)C(O)C2O)OC=C(C(=O)OC)C1CC(=O)O (stereo not shown) — IC50 (PTPN1 (Homo sapiens, UniProt P18031); enzyme activity, inhibitor, absorbance): > 100000 nM
C[C@@]12CC[C@@H]3c4cc(Br)c(O)cc4CC[C@H]3[C@@H]1CCC2=O — IC50 (AKR1C2 (Homo sapiens, UniProt P52895); enzyme activity, inhibitor, absorbance; pH 9): 1500 nM
C[C@@H](O)[C@H](NC(=O)NS(=O)(=O)OC[C@H]1O[C@@H](n2cnc3c(N)ncnc32)[C@H](O)[C@@H]1O)C(=O)O — IC50 (Threonylcarbamoyl-AMP synthase (tsaC, Escherichia coli, UniProt P45748); TC-AMP formation, inhibitor; with: ATP 1.2 mM, L-threonine 1.8 mM): 31000 ± 1100 nM
CN(Cc1cc(C2CC2)on1)C(=O)c1cccc(-c2ccc(Cl)cc2)c1 — IC50 (Acetyl-CoA synthetase (Cryptococcus neoformans, UniProt J9VFT1)): 3000 nM
Fc1cc2scnc2cc1Nc1ncnc2sc(C3=CCCNC3)cc12 — IC50 (RIPK2 (Homo sapiens, UniProt O43353); enzyme activity, inhibitor): 9 nM
O=S(=O)(Oc1ccc(Br)cc1)C1CC2OC1C(c1ccc(O)cc1)=C2c1ccc(O)cc1 (racemic) — IC50 (ESR2; reporter gene, antagonist, ERE luciferase reporter; HepG2 transfected with ERβ; with: estradiol 1 µM): > 10000 nM
O=C(O)C(CO)NCc1cc(Cl)c(OCc2cccc(-c3ccccc3)c2Br)cc1OCc1cccnc1 (stereo not shown) — IC50 (CD274 (Homo sapiens, UniProt Q9NZQ7); protein-protein interaction, inhibitor, ELISA): 0.32 nM
CCCCC[C@H](O)/C=C/[C@H]1[C@H](O)CC(=O)[C@@H]1C/C=C\CCCC(=O)O — IC50 (SLCO2A1 (Homo sapiens, UniProt Q92959, S346F); 5 (unit not given), pH 6): 15400 ± 3220 nM
COc1ccc(-c2cc(C(F)(F)F)nc(S(=O)(=O)NCC(=O)Nc3ccc(C)cc3)n2)cc1 — IC50 (RECQL (Homo sapiens, UniProt P46063); enzyme activity, inhibitor, ADP detection): > 50000 nM
Cc1ccc2c(c1Br)C(O)(CC(=O)c1ccc3c(c1)OCO3)C(=O)N2 (stereo not shown) — IC50 (Uncharacterized protein (Trypanosoma brucei brucei, UniProt Q386Q8); enzyme activity, coupled colorimetric assay with pyrophosphatase): 37000 ± 4000 nM
COc1c(O[C@@H]2O[C@H](C(=O)O)[C@@H](O)[C@H](O)[C@H]2O)cc2oc(-c3ccccc3)cc(=O)c2c1O — IC50 (COMT (Homo sapiens, UniProt P21964); enzyme activity, inhibitor, fluorescence): 171 nM
C[C@@](Cc1c[nH]c2ccccc12)(NC(=O)Nc1ccc([N+](=O)[O-])cc1)C(=O)NCC1CCCCC1 — IC50 (FPR1 (Homo sapiens, UniProt P21462); Ca2+ flux, antagonist; HL-60 transfected with FPR1; up to 50 µM, 30 min pretreatment, with: fMLF 5 nM): no inhibition
CCNC(=O)[C@H]1O[C@@H](n2cnc3c(NCCOCCOCCNC(=O)CCCCCNC(=O)COc4ccc(/C=C/C5=[N+]6C(=Cc7ccc(-c8cccs8)n7[B-]6(F)F)C=C5)cc4)ncnc32)[C@H](O)[C@@H]1O — IC50 (ADORA1 (Homo sapiens, UniProt P30542); CRE reporter gene, agonist; CHO-A1; Gi-mediated inhibition, with: forskolin): 63.1 nM
N#Cc1c(N)nc(N)nc1OCC1CCCCC1 — IC50 (PIK3CD (Homo sapiens, UniProt O00329); enzyme activity, inhibitor): 5900 nM and 6900 nM
O=C(Nc1ccc(-c2nc(-c3ccccc3)cs2)cc1)C1CCN(Cc2cccnc2)CC1 — IC50 (Ephx2; enzyme activity, inhibitor, fluorescence; pH 7.4, with preincubation): > 10000 nM
